Results pooled from the literature.
Numbered parts are unrelated; each lists some results of a single study.

Series 1
Target: Prothrombin, mature alpha-thrombin (F2, Homo sapiens, UniProt P00734)
Technique: aptamer microarray, sandwich
Molecule type: DNA with 2'F-ANA
Matrix: in vitro
Tested at: 200 nM
Notes: whole 15-mer aptamer, many near background
Added: Cy3 exosite-II aptamer, 400 nM
Direction: higher = stronger binding
Sequence: GGTTGGTGTGGTTGG
Modification | mean fluorescence intensity [a.u.]
2'F-ANA at 1 3 4 6 7 10 15 | 61.7
2'F-ANA at 1 2 3 4 6 7 8 9 12 15 | 344
2'F-ANA at 1 2 4 5 9 12 13 14 15 | 48.1
2'F-ANA at 1 3 5 6 9 11 12 13 | 72.3
2'F-ANA at 2 5 6 7 8 10 15 | 44.6
2'F-ANA at 1 2 3 4 5 6 7 8 9 10 | 57.9
2'F-ANA at 2 3 4 8 9 10 15 | 245

Series 2
Target: Sal-like protein 4, full length isoform A (SALL4, Homo sapiens, UniProt Q9UJQ4, residues 1-1053)
Sequence of UniProt Q9UJQ4 (whole entry, looked up): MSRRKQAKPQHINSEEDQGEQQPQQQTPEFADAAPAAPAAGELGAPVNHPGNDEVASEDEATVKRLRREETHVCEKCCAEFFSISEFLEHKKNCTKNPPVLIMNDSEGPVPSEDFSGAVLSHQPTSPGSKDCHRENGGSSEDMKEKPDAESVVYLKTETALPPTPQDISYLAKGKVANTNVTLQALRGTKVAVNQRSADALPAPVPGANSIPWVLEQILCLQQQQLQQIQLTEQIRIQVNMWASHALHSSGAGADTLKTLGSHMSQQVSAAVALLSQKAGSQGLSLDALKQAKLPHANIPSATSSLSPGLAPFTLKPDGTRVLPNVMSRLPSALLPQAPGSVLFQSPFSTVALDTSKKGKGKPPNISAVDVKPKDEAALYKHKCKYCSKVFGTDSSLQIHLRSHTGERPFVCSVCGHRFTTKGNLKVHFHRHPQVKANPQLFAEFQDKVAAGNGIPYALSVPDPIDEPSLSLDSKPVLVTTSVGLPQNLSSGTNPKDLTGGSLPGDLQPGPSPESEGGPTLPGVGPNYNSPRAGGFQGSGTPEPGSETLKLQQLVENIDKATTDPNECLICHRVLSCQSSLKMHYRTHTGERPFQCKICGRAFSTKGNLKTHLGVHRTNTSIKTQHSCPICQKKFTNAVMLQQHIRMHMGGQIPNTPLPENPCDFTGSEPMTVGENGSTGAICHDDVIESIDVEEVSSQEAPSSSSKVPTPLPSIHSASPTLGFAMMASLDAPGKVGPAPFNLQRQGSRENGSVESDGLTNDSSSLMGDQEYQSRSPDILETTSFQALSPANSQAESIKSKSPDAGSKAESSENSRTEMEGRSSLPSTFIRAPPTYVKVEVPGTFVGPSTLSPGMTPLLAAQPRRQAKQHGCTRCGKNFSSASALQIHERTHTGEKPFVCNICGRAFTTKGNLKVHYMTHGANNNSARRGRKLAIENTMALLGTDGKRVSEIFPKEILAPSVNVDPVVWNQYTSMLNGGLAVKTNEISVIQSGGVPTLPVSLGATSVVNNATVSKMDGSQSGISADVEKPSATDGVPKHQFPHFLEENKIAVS
Technique: universal PBM
Molecule type: double-stranded DNA, one strand shown
Matrix: in vitro
Tested at: 600 nM
Notes: 8-mer, flanks averaged, mean of replicates
Direction: higher = stronger binding
Sequence | E-score
CTTTGCTA | 0.212
AACAGTTC | 0.13
ATGCAAGC | 0.003
GGCGTCGA | -0.223
CCCAAAGA | 0.045
CGATGACA | 0.0811

Series 3
Target: Interferon regulatory factor 5, full length, phosphomimetic (IRF5, Homo sapiens, UniProt Q13568-2, residues 1-514, K96S/S451D/S453D/S456D/S462D)
Technique: protein-binding microarray
Molecule type: double-stranded DNA, one strand shown
Matrix: in vitro
Tested at: 250 nM
Notes: 60-bp whole probe
Added: salmon DNA 0.4 mg/ml
Relative to: random background probes
Direction: higher = stronger binding
All sequences stand within: GCCTAGCAC … GTCTTGATTCGCTTGACGCTGCTG
Sequence | log fluorescence
TTAGGTTTCCGACTGGGTTAGTGCTAG | 0.0831 z-score
TCCCTTTCAGTTTTCCTATGGTGCTAG | 4.3 z-score
TTTTTTTTTTTTCTGATCCAGTGCTAG | 1.5 z-score
GACCGACTGGACTATCGGGACGTGCTA | 0.962 z-score
TTAGGCCTGGGTATCGGTTAGTGCTAG | 3.52 z-score
TTAGGAATGGACTATCGGTTAGTGCTA | 6.04 z-score
CTTGCTACACATCTCACTCTGTGCTAG | 0.274 z-score

Other studies, line by line
Molecule | target | assay | system | conditions | scale | measurement | result
PhoQ, residues 284 288 289 292 302 303 NLALSC | PhoP, residues 12 14 15 18 19 LWHVM (Escherichia coli, UniProt P23836) | Sort-seq, measured: YFP reporter | E. coli | PhoQ-PhoP variant library, added: 10 µM Mg2+ | relative to: high Mg2+ state, higher = stronger signaling | fold induction | 1.63

Some of these lines once more (series 2):
Sequence | E-score
GGCGTCGA | -0.223
